Assay results from different studies.
A part holds a random share of what one study measured.
UniProt O14965, sequence (whole entry, looked up): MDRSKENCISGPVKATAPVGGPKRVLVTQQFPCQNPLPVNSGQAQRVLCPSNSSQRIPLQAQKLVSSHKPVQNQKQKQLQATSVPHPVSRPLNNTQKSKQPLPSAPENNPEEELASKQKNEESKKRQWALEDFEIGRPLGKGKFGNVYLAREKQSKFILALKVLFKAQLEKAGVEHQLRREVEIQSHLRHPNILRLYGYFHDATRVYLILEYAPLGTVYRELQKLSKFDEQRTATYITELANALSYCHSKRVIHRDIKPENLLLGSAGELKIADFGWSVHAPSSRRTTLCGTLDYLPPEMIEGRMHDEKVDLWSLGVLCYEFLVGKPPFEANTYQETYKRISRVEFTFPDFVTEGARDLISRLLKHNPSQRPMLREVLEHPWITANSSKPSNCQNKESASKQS

Sample 1
Target: TAR DNA-binding protein 43, full length, His tag (TARDBP, Homo sapiens, UniProt Q13148, residues 1-414)
Technique: RNA Bind-n-Seq
Molecule type: RNA
Medium: in vitro
Tested at: 20 nM
Notes: 6-mer, flanks averaged, single round
Added: 150 mM LiCl
Baseline: input library
Reading: higher = stronger binding
`UGUUCU`: “6-mer enrichment (R)” 1.05.
`AAUUUC` — result for “6-mer enrichment (R)”: 0.944.
`CGGCGC` — result for “6-mer enrichment (R)”: 0.976.
`AGAAAG`: “6-mer enrichment (R)” 0.93.
`GAUUGA`: “6-mer enrichment (R)” 0.956.
For `CCCGCU`, “6-mer enrichment (R)” read 1.
Under “6-mer enrichment (R)”, `ACCUAC` is recorded as 0.862.
Under “6-mer enrichment (R)”, `GAUUCG` is recorded as 0.889.

Sample 2
Target: Prothrombin, mature alpha-thrombin (F2, Homo sapiens, UniProt P00734)
Technique: aptamer microarray, sandwich
Molecule type: DNA with 2'F-ANA
Medium: in vitro
Tested at: 200 nM
Notes: whole 15-mer aptamer, many near background
Added: Cy3 exosite-II aptamer, 400 nM
Reading: higher = stronger binding
Sequence: GGTTGGTGTGGTTGG
`2'F-ANA at 1 6 10 12 14 15` — result for “mean fluorescence intensity”: 50 a.u.
For `2'F-ANA at 1 3 4 7 11 14 15`, “mean fluorescence intensity” read 84.1 a.u.
For `2'F-ANA at 5 9 10 11 12`, “mean fluorescence intensity” read 51.4 a.u.
`2'F-ANA at 1 2 3 5 6 7 10 11 12 13 15`: “mean fluorescence intensity” 72.4 a.u.
`2'F-ANA at 1 3 8 9 12 13 15` — result for “mean fluorescence intensity”: 424 a.u.
Under “mean fluorescence intensity”, `2'F-ANA at 1 3 4 5 7 8 9 10 12 15` is recorded as 52.9 a.u.
For `2'F-ANA at 1 2 3 7 9 11 12 13 14 15`, “mean fluorescence intensity” read 83.9 a.u.
`2'F-ANA at 1 2 5 6 7 8 10 13 14`: “mean fluorescence intensity” 86.7 a.u.

Sample 3
Target: Interferon regulatory factor 1, DNA-binding domain (IRF1, Homo sapiens, UniProt P10914, residues 1-114)
Technique: protein-binding microarray
Molecule type: hairpin DNA
Medium: in vitro
Tested at: not given
Notes: whole hairpin DNA, median over replicate spots
Baseline: not given
Reading: higher = stronger binding
All sequences stand within: GAGGCCCG … CGGGCCTCACAC
Target sequence (chain): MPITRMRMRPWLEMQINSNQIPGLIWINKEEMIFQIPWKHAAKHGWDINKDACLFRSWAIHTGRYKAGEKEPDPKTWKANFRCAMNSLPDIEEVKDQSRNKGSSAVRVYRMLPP
With `ACGGTGAAACGCCTCCTGGCGTTTCACCGT` the median fluorescence was 522 a.u.
With `CAAGCGAAACGCCTCCTGGCGTTTCGCTTG (5mC at 9)` the median fluorescence was 550 a.u.
For `AAAGTGAAACGCCTCCTGGCGTTTCACTTT (5mC at 7 39)`, the median fluorescence was 1190 a.u.
`AAAGTGAACGGCCTCCTGGCCGTTCACTTT (5mC at 17)` gave a median fluorescence of 506 a.u.
With `AAAGCGCGACGCCTCCTGGCGTCGCGCTTT (5mC at 15)` the median fluorescence was 522 a.u.
With `GAAGTGAAACGCCTCCTGGCGTTTCACTTC (5mC at 38)` the median fluorescence was 656 a.u.
With `AAAGTGAAAGGCCTCCTGGCCTTTCACTTT` the median fluorescence was 1710 a.u.
`AAAGTCGAACGCCTCCTGGCGTTCGACTTT` gave a median fluorescence of 538 a.u.

Single results of other studies
The remaining activity of `N#Cc1c(NC(=O)c2cccc3ccccc23)sc2c1CCCC2` is reported as 101% (Aurora kinase A (AURKA, Homo sapiens, UniProt O14965); enzyme activity, inhibitor; 0.5 µM; baseline: control).

For quick reference, copied from above (sample 2):
For `2'F-ANA at 1 3 4 7 11 14 15`, “mean fluorescence intensity” read 84.1 a.u.
`2'F-ANA at 1 3 8 9 12 13 15` — result for “mean fluorescence intensity”: 424 a.u.
For `2'F-ANA at 1 2 3 7 9 11 12 13 14 15`, “mean fluorescence intensity” read 83.9 a.u.
`2'F-ANA at 1 2 3 5 6 7 10 11 12 13 15`: “mean fluorescence intensity” 72.4 a.u.
